Measurements collected from several papers.
Every numbered part comes from another study and shows a few of its results, in no order.

Sample 1
Target: Sal-like protein 4, full length isoform A (SALL4, Homo sapiens, UniProt Q9UJQ4, residues 1-1053)
Sequence of UniProt Q9UJQ4 (whole entry, looked up): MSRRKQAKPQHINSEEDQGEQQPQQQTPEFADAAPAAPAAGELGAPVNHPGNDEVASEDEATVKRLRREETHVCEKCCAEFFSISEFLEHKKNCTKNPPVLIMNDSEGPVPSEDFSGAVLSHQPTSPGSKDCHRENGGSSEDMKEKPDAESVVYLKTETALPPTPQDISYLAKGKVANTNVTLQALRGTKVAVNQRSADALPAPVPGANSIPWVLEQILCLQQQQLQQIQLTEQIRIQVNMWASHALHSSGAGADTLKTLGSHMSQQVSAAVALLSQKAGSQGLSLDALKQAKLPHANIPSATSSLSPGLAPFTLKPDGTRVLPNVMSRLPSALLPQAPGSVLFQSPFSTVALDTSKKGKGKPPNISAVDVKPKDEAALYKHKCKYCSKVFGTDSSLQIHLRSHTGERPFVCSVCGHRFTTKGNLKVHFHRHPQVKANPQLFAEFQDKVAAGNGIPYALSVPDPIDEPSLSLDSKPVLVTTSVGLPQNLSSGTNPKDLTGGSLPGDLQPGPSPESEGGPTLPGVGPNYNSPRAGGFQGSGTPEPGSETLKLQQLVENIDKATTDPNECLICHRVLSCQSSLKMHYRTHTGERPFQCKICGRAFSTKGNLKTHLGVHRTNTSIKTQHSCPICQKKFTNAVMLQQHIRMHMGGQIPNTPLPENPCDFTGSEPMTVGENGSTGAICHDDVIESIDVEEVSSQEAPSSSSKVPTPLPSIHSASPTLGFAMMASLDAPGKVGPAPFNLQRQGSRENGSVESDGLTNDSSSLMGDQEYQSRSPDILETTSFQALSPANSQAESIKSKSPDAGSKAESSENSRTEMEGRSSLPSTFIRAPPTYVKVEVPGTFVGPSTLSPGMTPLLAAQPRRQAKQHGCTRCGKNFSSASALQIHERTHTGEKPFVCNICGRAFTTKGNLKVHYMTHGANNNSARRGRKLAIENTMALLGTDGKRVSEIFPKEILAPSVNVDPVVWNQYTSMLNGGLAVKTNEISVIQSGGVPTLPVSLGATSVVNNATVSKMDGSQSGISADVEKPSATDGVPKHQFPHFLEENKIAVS
Method: universal PBM
Form: double-stranded DNA, one strand shown
Medium: in vitro
Tested at: 600 nM
Setting: 8-mer, flanks averaged, mean of replicates
Reading: higher = stronger binding
Strand	E-score
CAAGACCA	-0.11
AACCGCTA	-0.101
GTATGCTA	0.158
GCTAGACC	-0.261
CCAGCAGA	-0.07
AAAGAAAT	0.342

Sample 2
Target: RING finger protein unkempt homolog, zinc fingers 1-6, GST-SBP tag (UNK, Homo sapiens, UniProt Q9C0B0, residues 30-357)
Sequence of UniProt Q9C0B0 (30-357, looked up): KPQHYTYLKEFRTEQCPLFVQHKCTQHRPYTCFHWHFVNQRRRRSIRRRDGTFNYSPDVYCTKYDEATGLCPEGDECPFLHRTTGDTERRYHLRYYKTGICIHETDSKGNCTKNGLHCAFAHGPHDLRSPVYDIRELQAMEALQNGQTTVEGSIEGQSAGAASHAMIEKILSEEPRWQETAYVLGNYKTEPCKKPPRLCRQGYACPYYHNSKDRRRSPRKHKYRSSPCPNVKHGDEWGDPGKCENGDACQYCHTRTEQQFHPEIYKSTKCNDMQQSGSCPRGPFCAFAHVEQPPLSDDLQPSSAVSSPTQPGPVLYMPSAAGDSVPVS
Method: RNA Bind-n-Seq
Form: RNA
Medium: in vitro
Tested at: not given
Setting: RNA with constant flanks, human and mouse sites, ends assumed
Reference: input RNA pool
Reading: higher = stronger binding
Shared flanks, not repeated: GGGAGUUCUACAGUCCGACGAUC … CAACAGAGGAUUGAGCAUCA
Strand	bound/input enrichment [ratio]
AUCUAGUUAGGGGUAACCAUUAAUUUAUUUUAUAAAGAAAGGAAAUGCUGAAAGUCGUAUUAGUACUGAGUUUAGUUGGAGAAUUUAGAUAAGUAAGUAUCUUUUAGGUAAUUCUAAAAU	32
AGACUGGAGAGAAUAAAGAGCAGUCGCAAAUGAAGCUGCCCACCCUCGGCACUCUGCAGCUUUAGUUACUGAUCUAGAAGCCCUGUAGUGUGAAGCGGCCGCUGCAGGCCAUUGUACACA	0.556
GUUGCCAGCAGCACUGCUGAAAAGAAUGCAUUUAUUUCAUGCAUUUGGAAAUUGAAUCAGCGAUAUCUCCGGAAGAAAAUUGAUUUUGUCAAUGUUAGCUCACAGCUUUUGGAAGAAUCU	0.183
UGGGGCUCAUCUAAACUAGUUCCAGUGGGAUACGGAAUUAAGAAACUUCAAAUACAGUGUGUAGUUGAAGAUGAUAAAGUUGGAACAGAUAUGCUGGAGGAGCAGAUCACUGCUUUUGAG	0.189
CAAGCAGCAAAAGAAAAGUCUAAUGCCAAGGCAAAUAGCCACUAUUUGUAUAGACACAAAUAUGAAAACUAUAGGAUGAUCAAAAAAUCAGGUGAAUCAUAUCCUGUGCAUUUCAAAAAA	0.714

Sample 3
Target: Interferon regulatory factor 7, full length, phosphomimetic (IRF7, Homo sapiens, UniProt Q92985, residues 1-503, S101K/S471D/S472D/S475D/S476D/S477D/S483D/S484D/S487D)
Method: protein-binding microarray
Form: double-stranded DNA, one strand shown
Medium: in vitro
Tested at: 250 nM
Setting: 60-bp whole probe
Together with: salmon DNA 0.4 mg/ml
Reference: random background probes
Reading: higher = stronger binding
Target sequence (chain): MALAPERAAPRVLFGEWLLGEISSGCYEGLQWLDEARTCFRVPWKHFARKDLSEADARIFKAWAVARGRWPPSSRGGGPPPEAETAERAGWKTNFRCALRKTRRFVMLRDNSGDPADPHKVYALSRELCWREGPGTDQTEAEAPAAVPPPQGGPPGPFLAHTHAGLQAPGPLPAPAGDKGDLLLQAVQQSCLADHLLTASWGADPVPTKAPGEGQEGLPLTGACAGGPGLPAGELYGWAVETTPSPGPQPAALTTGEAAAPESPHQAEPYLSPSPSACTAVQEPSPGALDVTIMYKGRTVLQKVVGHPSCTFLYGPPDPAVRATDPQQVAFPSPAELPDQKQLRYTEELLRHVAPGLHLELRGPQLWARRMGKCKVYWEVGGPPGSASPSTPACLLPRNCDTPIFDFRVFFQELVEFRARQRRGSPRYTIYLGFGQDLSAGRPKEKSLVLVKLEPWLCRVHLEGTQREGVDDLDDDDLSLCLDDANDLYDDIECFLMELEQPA
Strand	log fluorescence [z-score]
GCCTAGCACCACGATTTCAGTATCGAGACGTGCTAGGTCTTGATTCGCTTGACGCTGCTG	0.523
GCCTAGCACATTCCTCTCACCTCGGCCTCGTGCTAGGTCTTGATTCGCTTGACGCTGCTG	1.43
GCCTAGCACTTAGAGTTCAGTTCCGATTAGTGCTAGGTCTTGATTCGCTTGACGCTGCTG	0.562
GCCTAGCACTTAGATATCGTGTATCGATTAGTGCTAGTCTTGATTCGCTTGACGCTGCTG	0.165

Single results of other studies
Substance	target	test	system	conditions	scale	measurement	value
PhoQ, residues 284 288 289 292 302 303 SSTMSV	PhoP, residues 12 14 15 18 19 TPWLV (Escherichia coli, UniProt P23836)	Sort-seq, measured: YFP reporter	E. coli	PhoQ-PhoP variant library, together with: 10 µM Mg2+	reference: high Mg2+ state, higher = stronger signaling	fold induction	1.1

For quick reference, copied from above (sample 1):
Strand	E-score
GCTAGACC	-0.261
CCAGCAGA	-0.07
AAAGAAAT	0.342
